Measured values gathered from unrelated publications.
Compare with care: the assays were run in different laboratories. Several values in a cell are separate wells, animals, samples, runs or records. ± marks the error that the study gave.
PKLR: Pyruvate kinase PKLR (PKLR, Homo sapiens, UniProt P30613)
T1: ssDNA, aptamer; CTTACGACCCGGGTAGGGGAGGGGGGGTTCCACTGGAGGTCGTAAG

Structure (SMILES) | target | test | test system | setting | scale | endpoint | value
C[C@@H]1Cc2ccccc2N1C(=O)NCCCCN(C)[C@@H]1Cc2cccc3[nH]c(=O)n(c23)C1 | HTR1A (Homo sapiens, UniProt P08908) | binding |  | together with: [3H]8-OH-DPAT |  | Hill coefficient | -0.51 ± 0.01
CC(C)C[C@@H]1NC(=O)CNC(=O)[C@H](CC(C)C)NC(=O)[C@@H]2CCCN2C(=O)[C@H](CC(=O)O)NC(=O)[C@H](Cc2ccc(O)cc2)NC(=O)CNC(=O)[C@@H](Cc2ccc(O)cc2)NC(=O)CSC[C@@H](C(N)=O)NC(=O)[C@H](C)NC(=O)[C@H](Cc2ccccc2)NC(=O)[C@H](Cc2ccc(O)cc2)NC(=O)[C@H](CCCCN)NC1=O | VPS35/VPS29 (Homo sapiens, UniProt Q96QK1+Q9UBQ0) | binding, ITC |  | 25 °C, heterodimer |  | ΔG | -10.3 ± 0.08 kcal/mol
CSC1=NS(=O)(=O)c2ccccc21 | PKLR | enzyme activity, activator |  | 10 µM |  | activity | inactive
O=S(=O)(O)O | GUK1 (Homo sapiens, UniProt Q16774) | enzyme activity, NADH-coupled |  | 1 mM, together with: ATP 31.25 µM |  | reaction velocity | 0.0334 µM/s and 0.0443 µM/s and 0.0286 µM/s
C[S+](CC[C@H](N)C(=O)O)C[C@H]1O[C@@H](n2cnc3c(N)ncnc32)[C@H](O)[C@@H]1O (stereo partly drawn) | O-methyltransferase (Sorghum bicolor, UniProt A0A1B6PFV1) | isothermal titration calorimetry |  | concentration not given, apo protein |  | ΔG of binding | -5.39 kcal/mol
Nc1ncnc2c1ncn2[C@@H]1O[C@H](COP(=O)(O)OP(=O)(O)OP(=O)(O)O)[C@@H](O)[C@H]1O | T1, ssDNA, aptamer | ITC |  |  |  | Kd | 551 nM
Cc1cn(-c2cc(NC(=O)c3ccc(C)c(Nc4nccc(-c5cccnc5)n4)c3)cc(C(F)(F)F)c2)cn1 | Nuclear receptor subfamily 2 group C member 2, ligand-binding domain (Homo sapiens, UniProt P49116) | SPR imaging |  | 600 nM |  | koff | 4.3e-09 s⁻¹
C=CC(=O)N1CCC(C(=O)NCC(=O)N2CCN(c3nc(-c4cnc(N)nc4C(F)F)nc(N4CCOCC4)n3)CC2)CC1 | ACVR2B (Homo sapiens, UniProt Q13705) | KINOMEscan |  | 1 µM |  | remaining binding | 91%
CC[C@H](C)[C@H](NC(=O)[C@H](CCC(=O)O)NC(=O)[C@H](CCC(=O)O)NC(=O)[C@@H]1CCCN1C(=O)[C@H](CC(=O)O)NC(=O)[C@H](C)NC(=O)[C@H](CCC(N)=O)NC(=O)[C@@H](NC(=O)[C@H](C)NC(=O)[C@@H](NC(=O)[C@H](CO)NC(=O)[C@@H](NC(=O)[C@H](CCCCN)NC(=O)[C@@H](N)Cc1ccc(O)cc1)[C@@H](C)O)C(C)C)[C@@H](C)O)C(=O)N[C@H](C(=O)N[C@H](C(=O)N[C@@H](CC(C)C)C(=O)N[C@@H](CC(=O)O)C(=O)N[C@@H](CC(=O)O)C(=O)N[C@@H](CC(=O)O)C(=O)N[C@@H](CC(=O)O)C(=O)O)C(C)C)[C@@H](C)CC | Small ubiquitin-related modifier 1, residues 17-97 (Homo sapiens, UniProt P63165, C52A) | isothermal titration calorimetry |  | concentration not given, pH 7.4, N-terminally truncated SUMO1 |  | enthalpy change (ΔH) | 4.52 ± 0.03 kcal/mol
CCCC[C@H]1CN(c2cccc(OC(F)(F)F)c2)C(=O)CN1Cc1cncn1Cc1ccc(Cl)cc1 | Cryptococcus neoformans farnesyltransferase | enzyme activity, inhibitor, fluorescence |  | together with: 1 µM FPP, 0.5 µM dansylated peptide |  | IC50 | 260 ± 130 nM
CC1CCCN(C(=O)c2cc3ncccn3n2)C1 (stereo not drawn) | YTH domain-containing protein 1 (Homo sapiens, UniProt Q96MU7) | binding, affinity selection mass spectrometry |  |  | baseline: other proteins in batch | log fold enrichment | 0.144
CC(NC(=O)CCCc1ccc2ccc3cccc4ccc1c2c34)C(=O)NO (stereo not drawn) | HDAC8 (Homo sapiens, UniProt Q9BY41) | ITC | Hepes buffer | concentration not given, pH 7.5 |  | binding stoichiometry | 0.8
O=C(COP(=O)(O)O)[C@@H](O)[C@H](O)[C@H](O)COP(=O)(O)O | PKLR | thermal proteome profiling | HepG2 cell lysate | concentration not given, 57 over 37 °C, mean | baseline: compound over control | thermal stability ratio | 0.598
CCN1CCC[C@H]1CNC(=O)c1c(O)c(Cl)cc(Cl)c1OC | SUCNR1 (Homo sapiens, UniProt Q9BXA5) | β-arrestin recruitment, TANGO luminescence |  | concentration not given | baseline: basal luminescence | log2 fold change | 0.504
NCCCC(=O)O | SLC6A6 (Homo sapiens, UniProt P31641, G62A) | binding, microscale thermophoresis |  | 7.81 µM, room temperature, together with: 50 nM labelled protein | higher = more binding | normalised MST signal | -0.0351

A few entries again:
Structure (SMILES) | target | test | test system | setting | scale | endpoint | value
O=C(COP(=O)(O)O)[C@@H](O)[C@H](O)[C@H](O)COP(=O)(O)O | PKLR | thermal proteome profiling | HepG2 cell lysate | concentration not given, 57 over 37 °C, mean | baseline: compound over control | thermal stability ratio | 0.598
